Measurements pooled from the literature.
Every numbered part comes from another study and shows a few of its results, in no order.

Sample 1
Target: Ras GTPase-activating protein-binding protein 1, full length (G3BP1, Homo sapiens, UniProt Q13283)
Sequence of UniProt Q13283 (whole entry, looked up): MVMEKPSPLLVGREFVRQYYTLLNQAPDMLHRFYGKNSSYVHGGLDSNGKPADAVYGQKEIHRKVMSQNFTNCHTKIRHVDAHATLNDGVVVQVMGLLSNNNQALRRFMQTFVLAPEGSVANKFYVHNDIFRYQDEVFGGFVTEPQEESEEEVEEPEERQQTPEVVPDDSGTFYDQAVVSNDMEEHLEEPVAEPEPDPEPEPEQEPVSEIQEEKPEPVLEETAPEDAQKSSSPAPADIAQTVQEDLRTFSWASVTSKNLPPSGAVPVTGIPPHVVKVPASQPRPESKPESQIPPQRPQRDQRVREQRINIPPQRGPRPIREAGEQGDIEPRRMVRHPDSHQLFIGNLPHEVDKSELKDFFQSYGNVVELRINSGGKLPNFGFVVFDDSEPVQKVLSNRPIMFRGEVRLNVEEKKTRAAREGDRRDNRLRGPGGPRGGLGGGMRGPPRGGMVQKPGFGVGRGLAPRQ
Technique: RNA Bind-n-Seq
Form: RNA
Matrix: in vitro
Concentration: 200 nM
Notes: whole 134-nt RNA, ends assumed
Added: 150 mM KCl
Reference: input library
Direction: higher = stronger binding
All sequences stand within: GGGAGUUCUACAGUCCGACGAUC … UGGAAUUCUCGGGUGUCAAGG
Sequence | log2 enrichment
AGUCCUGUGCUACACAUCGUAUGUACCGAAUCGGAAAAAAAGGUUUUUGGUUUUUGGAAAGUAUUAUGUUACGCCGUUCGGAUCUGCACU | -1.74
UGGGAGGUGGAUUUUGUUUAUUUUUUUAGCUCAUUUCCAGGGGCGGGAAUUUUUUUUUAAUAUGUGUCAUGAAUAAAGUUGUUUUUGAAA | 0.041
UCCUGUGCUACACAUCGUAUGUACCGAAUCGGGGAAAAAAGGGGAAAAAAGGAAAAAAGGAAAGUAUUAUGUUACGCCGUUCGGAUCUGC | -0.253
GUCCUGUGCUACACAUCGUAUGUACCGAAUCGGGUUUUUUUGGGAAAAAGGGUUUGGGAAAGUAUUAUGUUACGCCGUUCGGAUCUGCAC | -0.677
UGGACUUGCGGGUUCCCAUCUGGGACCAGGACAUACAGUUUCUCCCAGGAUCACAGAAGCUUGUCACCUGCACAGGGUACCACCAGGUAA | 0.0449
UCCUGUGCUACACAUCGUAUGUACCGAAUCAAACCCCCCCAAAUUUUUUUAAAUUUAAAAAAGUAUUAUGUUACGCCGUUCGGAUCUGCA | 0.391
UCAAGUCCUGUGCUACACAUCGUAUGUACCGAAUCGGAAAGGGAAAGGGAAAGGAAAGUAUUAUGUUACGCCGUUCGGAUCUGCACUUCC | -0.852
GCAGGAAGUAAAAACAAAUGGAAAUGCUUCGGAUAGUGAAAGGGGUGGGGGUUGCUAAGGAAAGGGUGGGAUGGGAGUGGGUAAAGAGUU | 0.818
UGGCCCUGGUGGCAUGCGGGGAGGAAGAGGUGGCCUCAGGGAUCGUGGUGGUCCCGGUGGAAUGUUCAGAGGUGGCCGUGGUGGAGACAG | -0.109

Sample 2
Target: Sal-like protein 4, full length isoform A (SALL4, Homo sapiens, UniProt Q9UJQ4, residues 1-1053)
Sequence of UniProt Q9UJQ4 (whole entry, looked up): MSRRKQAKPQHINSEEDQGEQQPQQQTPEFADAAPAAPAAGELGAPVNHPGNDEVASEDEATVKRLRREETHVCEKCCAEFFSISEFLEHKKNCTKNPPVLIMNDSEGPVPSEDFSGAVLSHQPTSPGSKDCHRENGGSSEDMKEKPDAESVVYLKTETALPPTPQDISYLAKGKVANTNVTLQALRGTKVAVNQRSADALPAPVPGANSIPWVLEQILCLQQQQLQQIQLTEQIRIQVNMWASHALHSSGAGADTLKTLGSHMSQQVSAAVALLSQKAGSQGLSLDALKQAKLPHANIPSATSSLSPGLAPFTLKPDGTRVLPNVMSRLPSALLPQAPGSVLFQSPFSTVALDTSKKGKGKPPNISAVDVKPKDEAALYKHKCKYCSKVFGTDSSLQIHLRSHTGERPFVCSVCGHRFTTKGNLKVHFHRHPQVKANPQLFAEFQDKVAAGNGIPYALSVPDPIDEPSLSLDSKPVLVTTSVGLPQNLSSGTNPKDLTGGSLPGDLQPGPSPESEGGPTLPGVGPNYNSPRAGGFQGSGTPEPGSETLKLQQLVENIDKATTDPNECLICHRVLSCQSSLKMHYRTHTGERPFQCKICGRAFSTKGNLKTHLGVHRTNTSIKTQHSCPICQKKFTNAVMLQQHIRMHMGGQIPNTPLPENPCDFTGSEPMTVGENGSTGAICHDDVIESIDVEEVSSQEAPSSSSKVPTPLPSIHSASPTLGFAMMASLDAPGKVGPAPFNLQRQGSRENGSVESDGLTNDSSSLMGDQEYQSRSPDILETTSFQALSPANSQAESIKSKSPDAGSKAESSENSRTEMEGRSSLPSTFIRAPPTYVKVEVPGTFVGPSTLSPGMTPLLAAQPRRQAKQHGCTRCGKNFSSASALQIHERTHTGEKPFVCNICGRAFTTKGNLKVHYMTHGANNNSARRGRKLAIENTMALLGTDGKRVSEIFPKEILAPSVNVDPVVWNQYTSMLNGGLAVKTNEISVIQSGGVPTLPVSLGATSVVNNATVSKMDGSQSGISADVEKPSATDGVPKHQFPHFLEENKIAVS
Technique: universal PBM
Form: double-stranded DNA, one strand shown
Matrix: in vitro
Concentration: 600 nM
Notes: 8-mer, flanks averaged, mean of replicates
Direction: higher = stronger binding
Sequence | E-score
TACGGTGA | 0.101
GCCTCCGA | -0.239
GTCCGGGA | -0.199
ATCACGTG | -0.0439
GGATGCTA | -0.149
GAATGCTA | 0.134
AATACAAC | 0.264
ACGAGCAT | 0.111
ACCCGCCG | -0.262
ATCGCGTC | -0.0604
ATTACGGA | 0.0718
CTAGTGAG | -0.189
CCATAGAG | -0.0391
AAAGTGGG | -0.029
GCCTGACA | -0.274
AAACGCTG | -0.0767
CAGAACCC | -0.236
GGACCGCC | -0.399
CACTCGAG | -0.239
CAGCTTTA | 0.0606
CCGAGTCC | -0.162
GAAGGAAA | 0.0888
AATAGGGG | 0.0163
CACCACTA | 0.0249
AGGATGAG | -0.0354

Sample 3
Target: Prothrombin, mature alpha-thrombin (F2, Homo sapiens, UniProt P00734)
Technique: aptamer microarray, sandwich
Form: DNA with 2'F-ANA
Matrix: in vitro
Concentration: 200 nM
Notes: whole 15-mer aptamer, many near background
Added: Cy3 exosite-II aptamer, 400 nM
Direction: higher = stronger binding
Sequence: GGTTGGTGTGGTTGG
Modification | mean fluorescence intensity [a.u.]
2'F-ANA at 2 7 9 10 13 15 | 117
2'F-ANA at 1 2 5 7 8 10 12 13 | 55.6
2'F-ANA at 2 4 8 9 | 387
2'F-ANA at 4 6 7 9 11 14 15 | 69.3
2'F-ANA at 4 5 7 8 9 10 11 12 | 50
2'F-ANA at 1 3 4 5 7 8 9 10 11 12 | 53.8
2'F-ANA at 1 2 3 4 8 9 10 11 12 14 15 | 52.1
2'F-ANA at 1 3 5 7 9 10 11 13 14 | 48.2
2'F-ANA at 1 2 3 8 9 11 12 | 357
2'F-ANA at 2 6 7 8 12 | 754
2'F-ANA at 2 3 4 8 11 12 15 | 760
2'F-ANA at 1 2 5 9 11 12 14 15 | 47.3
2'F-ANA at 1 3 5 7 14 | 43.2
2'F-ANA at 1 3 5 6 7 9 11 13 14 15 | 50
2'F-ANA at 1 3 7 8 9 10 14 | 60.3
2'F-ANA at 1 4 12 14 | 73.8
2'F-ANA at 1 2 3 4 5 6 7 8 9 10 11 12 14 | 51.8
2'F-ANA at 1 2 4 6 7 8 9 10 11 15 | 53.5
2'F-ANA at 2 4 6 7 8 9 10 12 15 | 125
2'F-ANA at 1 2 4 8 10 13 | 102
2'F-ANA at 1 2 4 6 7 8 9 11 13 | 73.8
2'F-ANA at 2 3 4 5 7 8 10 13 | 49.1
2'F-ANA at 1 3 5 8 9 11 13 | 71.3

Sample 4
Target: RNA binding protein fox-1 homolog 2, RRM domain, GST-SBP tag (RBFOX2, Homo sapiens, UniProt O43251-10, residues 100-194)
Technique: RNA Bind-n-Seq
Form: RNA
Matrix: in vitro
Concentration: 365 nM
Notes: natural RNA segment, single round, ends assumed
Reference: no-protein control
Direction: higher = stronger binding
All sequences stand within: GGGAGUUCUACAGUCCGACGAUC … UGGAAUUCUCGGGUGCCAA
Sequence | RBNS enrichment (R)
UAAAAGUGCACUUAAAAUGAAUCUUUAUUAUUGCUGAGAUUUUAAUAGACAAUCCAAAGUCUCCCCUUCUGUUGCCGUCAUCUUGUUUAAUCAACCAUUUUUCAAGGCAC | 0.495
CUCUCCCACCCUGGGGGCAGGGUUCUAAGUAUGGGGAGUUCUUAUGCUGGCUUUUAGUGGUGUGUGUAGUUUGCUUGUAAGGGUGGGUUUGGCCCUGCAGGCCAGCUGUU | 1.3
GCAGAGUCCAACCGAAAACCCCCUAGGUGAGAUAGGCAGUAACUGGGCCUGCUGUCUGCGCCUUUCGUAGUGACAGAUGUGGCUGUAGUGUUUAGGUGUUUGGUCUUGCU | 0.369
AUUCAGAGAGGCAUUACUUAGAAUGCUGACAUAAAGACAUGACCUUGAAGAAAAGAAUAGAAUUCUCUAGAGCAGAGUAUUUUAGUAUUUGUAACUGGCAGACUCUGGUU | 0.392
AGUUCUUUUCUGGCAACUGUCACACUCACACAUGAAGGCAAUCCGUGCAGCACAAUACAAGAUGUUUAAACAAGGUGUCAGAUUUUUUUUUUAACCUAUGAGUGGAUAGA | 0.503
GGCCCAGACAGAAGAGGACGACCUACAGGAGCCAAAGGGAGACCUGACAGAAUCCUAAGACGUGAGUUGCUCAUUGUAAAACUAGAAUGUGAAGUGAAGUCACGGAACAA | 0.7
GGAGGGGAAGCCCCUUCUCCGGGGACCUUAUCUGUGGACUCAGGAAUGAUGGUGUUUAUUGCAAAUGCACAAUCUUUUUCCCAUUGAAAUGUCAUCACACUGGAAAUUGU | 0.496
ACAAGAAGGCCCAGCUAGAAGAACAUAUCCCACACACAGGCAACAGCUUUUGGGAUAGCCCCCGCUCUAGUUGUUCAGAACCUACAUGAAAACCAGGCUGCAUGUUCUGC | 13.5

Repeated from above (sample 2):
Sequence | E-score
ATCACGTG | -0.0439
CACCACTA | 0.0249
ACGAGCAT | 0.111
AAACGCTG | -0.0767
GGACCGCC | -0.399
ATCGCGTC | -0.0604
AATACAAC | 0.264
AGGATGAG | -0.0354
ATTACGGA | 0.0718
GTCCGGGA | -0.199
